# Results of several laboratories.
# A part holds a random share of what one study measured. Changes are numbered by the printed parent chain.

# Set 1
# Target: Sal-like protein 4, full length isoform A (SALL4, Homo sapiens, UniProt Q9UJQ4, residues 1-1053)
# Chain of UniProt Q9UJQ4 (whole entry, looked up): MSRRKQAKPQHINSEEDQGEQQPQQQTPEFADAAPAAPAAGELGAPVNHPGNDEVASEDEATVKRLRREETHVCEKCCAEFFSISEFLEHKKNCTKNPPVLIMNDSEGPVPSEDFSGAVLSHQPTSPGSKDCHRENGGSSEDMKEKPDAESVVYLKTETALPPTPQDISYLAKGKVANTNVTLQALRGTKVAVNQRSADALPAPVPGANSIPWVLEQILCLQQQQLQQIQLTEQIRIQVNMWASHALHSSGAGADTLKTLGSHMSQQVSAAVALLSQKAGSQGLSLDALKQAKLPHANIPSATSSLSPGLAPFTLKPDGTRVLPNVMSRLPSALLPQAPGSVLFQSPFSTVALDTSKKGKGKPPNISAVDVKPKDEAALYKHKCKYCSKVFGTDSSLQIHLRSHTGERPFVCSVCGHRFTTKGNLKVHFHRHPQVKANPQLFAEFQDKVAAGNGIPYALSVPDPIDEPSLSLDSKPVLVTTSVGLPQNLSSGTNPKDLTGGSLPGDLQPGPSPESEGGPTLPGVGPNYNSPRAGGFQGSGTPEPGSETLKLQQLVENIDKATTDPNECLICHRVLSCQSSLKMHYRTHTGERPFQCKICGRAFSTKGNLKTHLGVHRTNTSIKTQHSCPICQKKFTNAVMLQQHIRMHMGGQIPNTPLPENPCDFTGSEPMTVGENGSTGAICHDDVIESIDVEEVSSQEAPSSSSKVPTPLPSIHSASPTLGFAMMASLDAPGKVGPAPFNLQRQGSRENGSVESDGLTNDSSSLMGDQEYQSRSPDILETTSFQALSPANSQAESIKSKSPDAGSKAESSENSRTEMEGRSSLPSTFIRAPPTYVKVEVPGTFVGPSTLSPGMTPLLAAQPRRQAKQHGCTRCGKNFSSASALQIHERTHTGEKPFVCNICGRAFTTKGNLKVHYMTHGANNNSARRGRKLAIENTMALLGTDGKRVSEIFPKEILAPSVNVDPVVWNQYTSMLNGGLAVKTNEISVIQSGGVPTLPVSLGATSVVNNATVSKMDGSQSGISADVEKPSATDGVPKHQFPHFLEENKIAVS
# Technique: universal PBM
# Molecule type: double-stranded DNA, one strand shown
# Matrix: in vitro
# Concentration: 600 nM
# Setting: 8-mer, flanks averaged, mean of replicates
# Direction: higher = stronger binding
Sequence,E-score
AACGGAGT,0.00643
GTGCGTTA,0.07
ATAGGGGC,-0.153
GCAGGCGC,-0.294
CCACCATA,-0.0157
ACTCTCGA,-0.0384
CAGGTGGG,-0.229
ATTGGAAA,0.213
ACTGGCCA,-0.154
CGAAATAC,0.156
GCCAGGCA,-0.223
ACCGGGCA,-0.386
AGTTAGCG,0.0218
GTAAGGCA,0.014
ACAGGTGG,-0.168
AACAGATC,-0.00281
AAAGAAAC,0.119
ATCCCGAG,-0.202
CCCTCCTC,-0.258

# Set 2
# Target: ABI1, truncated, D143A, DHFR fusion (Arabidopsis thaliana)
# Technique: DHFR PCA, deep sequencing
# Matrix: yeast
# Setting: methotrexate growth selection, single substitutions
# Together with: (+)-ABA 200 µM
# Reference: wild-type fitted maximum
# Direction: higher = stronger binding
# Starting sequence: PYL1, truncated, DHFR fusion (Arabidopsis thaliana); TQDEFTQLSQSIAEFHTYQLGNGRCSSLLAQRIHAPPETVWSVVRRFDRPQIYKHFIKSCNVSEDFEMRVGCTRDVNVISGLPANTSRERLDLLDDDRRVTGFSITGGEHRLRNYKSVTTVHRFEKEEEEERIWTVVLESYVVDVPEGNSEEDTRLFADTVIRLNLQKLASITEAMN; partner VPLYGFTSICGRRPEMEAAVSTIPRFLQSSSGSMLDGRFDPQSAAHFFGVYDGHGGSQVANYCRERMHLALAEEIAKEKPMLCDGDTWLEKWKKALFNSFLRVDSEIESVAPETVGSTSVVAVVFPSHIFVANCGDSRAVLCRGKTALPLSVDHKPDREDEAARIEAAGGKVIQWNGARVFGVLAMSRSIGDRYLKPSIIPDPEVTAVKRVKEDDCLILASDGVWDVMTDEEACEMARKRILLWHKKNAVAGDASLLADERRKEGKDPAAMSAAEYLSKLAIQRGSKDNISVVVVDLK
Change,relative binding score
L91E,-5.15%
S11R,83.6%
T119K,33.4%
D48K,40.6%
E109H,98%
V145E,26.7%
F124K,88.4%
D3P,109%
K54A,-6.22%
G108V,5.81%
A30S,106%
N61G,92.6%
R74G,4.21%
A158T,101%
C25M,89.8%
F157R,1.38%
E127I,98.6%
V142S,94.2%
P50L,-2.56%
L94S,55.4%

# Set 3
# Target: RING finger protein unkempt homolog, zinc fingers 1-6, GST-SBP tag (UNK, Homo sapiens, UniProt Q9C0B0, residues 30-357)
# Chain of UniProt Q9C0B0 (30-357, looked up): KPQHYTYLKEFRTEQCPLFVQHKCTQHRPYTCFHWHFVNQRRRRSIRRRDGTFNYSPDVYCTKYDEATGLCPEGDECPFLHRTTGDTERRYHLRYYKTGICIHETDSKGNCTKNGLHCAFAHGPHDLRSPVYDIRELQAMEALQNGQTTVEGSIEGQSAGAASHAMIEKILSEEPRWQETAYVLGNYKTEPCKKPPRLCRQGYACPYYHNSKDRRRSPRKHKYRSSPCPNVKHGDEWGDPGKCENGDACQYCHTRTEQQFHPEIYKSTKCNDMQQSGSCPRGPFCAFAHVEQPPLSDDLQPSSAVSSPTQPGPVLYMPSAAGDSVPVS
# Technique: RNA Bind-n-Seq
# Molecule type: RNA
# Matrix: in vitro
# Concentration: not given
# Setting: RNA with constant flanks, human-mouse chimeric sites, ends assumed
# Reference: input RNA pool
# Direction: higher = stronger binding
# Shared flanks, not repeated: GGGAGUUCUACAGUCCGACGAUC … CAACAGAGGAUUGAGCAUCA
Sequence,bound/input enrichment [ratio]
UGUAGUUUCUUGAUUUAUCAUUUUUCUCUUUUCUUUCUUUCCUUUAGGAAAAGCCUAAAGAUUAGGUUGUAAGAAAAACAGAAGCCAGCCAUGUUUCGAAGACCUGUCAGGUAUUUCGUC,0.222
UUACCCGAGAACGAGGAUGAGCUGGAGAGCACCAAUAGGCGCUACACCAAGAGGGACUGCAGCACUUUCCUCAGAACUAGUGAGACGGGCAUCGUGGAUCAGGUUAUGGUCACUCUCAAC,0.143
GAAUCCUACUCAGGCGGAUUUUGCAACACCAAGCUCAAGUAGCAAUUAUCUUAGUCACAGUAGGGUAGUUUUGGGGCUCUGUGGCCAGGGUUUUAUUCAUGUGCAGGUUUGGAAAAUGUA,2.09
UUACCCGAGAACGAGGAUGAGCUGGAGAGCACCAACAGACGCUAUACCAAGAGGGACUGCAGCACUUUUCUCAGAACUAGUGAGACGGGCAUCGUGGACCAGGUCAUGGUCACUCUCAAC,0.163
UAAGUUAUUUUGUACAGCUUUGUAAAUUCUUAACAUUUUUAUAUUGCCAUGUUUAUUUUGUUUGGGUAAUUUGGUUCAUUAAGUACAUAGCUAAGGUACAUCUUUCAGUAAUUAUAGAUU,2.15
CCCCAAUACCAUUUGCAGGUCUGGAACUGCACUCUCUUUAAAGUUUUACAUGUAUACAUUUUAGGGCUGUAGACUUAUUUUCCUGGUUUUGUUUUUCAUUGCUGACUUUUGAGCACAGAA,1.8
GAAACAUUUAAAUUUAAAGAAGCUGUUGUUCUAGGAAGCACGGACUUCCUAGAAGAUGAUAUAGAGAAAAUUGUAGAAGAACUGGGGAAAGAGUAUAAGGGCAACGCCUACCAUCUGAUG,1.17
GGUGGGGUGGUCAUUGCCGUUUGAGCUGCUGAUUUUCAUGAGUCGCCUUCAAAACUCUCGUGUAGGGUUGACAAUGUAAGGGGUGGGGAAAUCUAGCUUAUUCUUUUAUUUUCAAGUCCA,6.58

# Set 4
# Target: Interferon regulatory factor 3, full length, phosphomimetic (IRF3, Homo sapiens, UniProt Q14653, residues 1-427, S386D/S396D/S398D/S402D/T404D/S405D)
# Technique: protein-binding microarray
# Molecule type: double-stranded DNA, one strand shown
# Matrix: in vitro
# Concentration: 2540 nM top
# Setting: 60-bp whole probe
# Together with: salmon DNA 0.4 mg/ml
# Reference: random background probes
# Direction: higher = stronger binding
# Shared flanks, not repeated: GCCTAGCAC … GTCTTGATTCGCTTGACGCTGCTG
# Construct (chain): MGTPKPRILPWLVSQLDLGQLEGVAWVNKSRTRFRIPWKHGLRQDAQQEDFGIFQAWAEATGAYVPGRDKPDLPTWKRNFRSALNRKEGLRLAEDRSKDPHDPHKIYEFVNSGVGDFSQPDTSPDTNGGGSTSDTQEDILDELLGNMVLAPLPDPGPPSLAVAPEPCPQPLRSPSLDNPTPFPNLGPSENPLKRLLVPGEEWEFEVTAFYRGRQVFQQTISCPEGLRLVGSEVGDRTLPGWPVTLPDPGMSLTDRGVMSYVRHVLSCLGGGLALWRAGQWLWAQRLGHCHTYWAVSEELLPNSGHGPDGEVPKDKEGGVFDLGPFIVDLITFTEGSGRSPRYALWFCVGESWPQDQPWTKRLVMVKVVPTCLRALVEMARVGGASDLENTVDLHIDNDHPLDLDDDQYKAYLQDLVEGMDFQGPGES
Sequence,fitted relative affinity [z-score]
TGGAACTTAAAAGAAAGATAGTGCTAG,-0.0999
ACAAGTTTCTCCTTTCGGAAGTGCTAG,3.23
GACGAGATCAGTTTCGAGACGTGCTAG,3.18
GGCCGTCTGAGCTCCGTAGCGTGCTAG,-0.789
GACGATCTCAATATCGAGACGTGCTAG,0.769
CTAGGTTCCCTTTTCCTTTAGTGCTAG,7.09
TTAGGTATCGGTTTTCGGTTAGTGCTA,6.02
TTAGATAGCGGGTTTCGATTAGTGCTA,1.51
TTAGGTCTTCTACTGCTTTAGTGCTAG,-0.445
TTAGGTTTCGGGTTCGGTTAGTGCTAG,5.46
ATATTTCCCAGAACTGGAGTGGTGCTA,1.16
GACGGTATCAACTATCGGGACGTGCTA,0.645
TTGGATATCAGTCTCGATTAGTGCTAG,0.837
GACGATATCAGTATTGAGACGTGCTAG,0.887
TAGTTTATACTCTAGATGATGTGCTAG,0.144
ATAGGTCTCGGTATCGGTTAGTGCTAG,2.53
GACGATTTCAGTCCCGAGACGTGCTAG,0.855
GACAGACTGGGTTTCGGGACGTGCTAG,1.41
GACGGACTGGGACTGGCGACGTGCTAG,-0.965

# Set 5
# Substance: PhoQ, residues 284 288 289 292 302 303 AQGLTV
# Technique: Sort-seq
# Refers to: YFP reporter
# Matrix: E. coli
# Setting: PhoQ-PhoP variant library
# Together with: 10 µM Mg2+
# Reference: high Mg2+ state
# Direction: higher = stronger signaling
target,fold induction
"PhoP, residues 12 14 15 18 19 SHWTV (Escherichia coli, UniProt P23836)",0.99
"PhoP, residues 12 14 15 18 19 QYCSL (Escherichia coli, UniProt P23836)",1.33
"PhoP, residues 12 14 15 18 19 STHWV (Escherichia coli, UniProt P23836)",3.57
